Measurements pooled from the literature.
Each line is one published result; not all experiments were run side by side. ± gives the spread as reported.
gag-pol protease: Gag-Pol polyprotein, protease (gag-pol, Human immunodeficiency virus type 1 group M subtype B, UniProt P04585)
gag-pol integrase: Gag-Pol polyprotein, integrase (gag-pol, Human immunodeficiency virus type 1 group M subtype B, UniProt P04585)
gag-pol reverse transcriptase: Gag-Pol polyprotein, reverse transcriptase (gag-pol, Human immunodeficiency virus type 1 group M subtype B, UniProt P04585)

With `CC(C)c1ccc(S(=O)(=O)N(CCc2ccccc2)C[C@@H](O)[C@H](Cc2ccccc2)NC(=O)O[C@H]2CO[C@H]3OCC[C@H]32)cc1` the Ki was 1.08 µM (gag-pol protease; enzyme activity, inhibitor, FRET; pH 5.0, 27 °C, added: substrate 10 µM).
`Cc1nc([C@H](NC(=O)c2ccc(-c3ccc(Cl)cc3)[nH]2)[C@@H]2CCCCN2)sc1CO` has an IC50 of greater than 100 µM (gag-pol integrase; enzyme activity, inhibitor).
`C=C(C)C1CCc2c(c(C)cc(O)c(=O)c2O)C1` (centres unmarked) has a Ki of 1 ± 0.4 µM (Gag-Pol polyprotein, RT RNase H domain (gag-pol, Human immunodeficiency virus type 1 group M subtype B, UniProt P04585); RNase H activity, inhibitor).
For `CC(C)C(O)C(NC(=O)[C@H](Cc1ccc(O)cc1)NC(=O)C(Cc1ccc(O)cc1)[N+](C)(C)C)C(=O)N[C@@H](C)C(=O)O` (some centres unmarked), the IC50 was greater than 10 µM (gag-pol protease; enzyme activity, inhibitor).
`COc1ccc2c(c1)OCCCC=CCCCCN(CC(O)C(Cc1ccccc1)NC(=O)OC1COC3OCCC13)S2(=O)=O` (mixture of isomers) gave a Ki of 8.2e-05 µM (gag-pol protease; enzyme activity, inhibitor).
The IC50 of `C=CCCCC[C@](C)(NC(=O)[C@H](CC(C)C)NC(=O)[C@H](CCCCN)NC(=O)[C@H](CC(C)C)NC(=O)[C@](C)(CCCCC=C)NC(=O)[C@H](Cc1ccccc1)NC(=O)[C@H](Cc1ccc(O)cc1)NC(=O)[C@H](C)NC(=O)[C@@H](N)[C@@H](C)O)C(=O)NCC(=O)N[C@@H](CCCNC(=N)N)C(=O)N[C@@H](Cc1c[nH]c2ccccc12)C(N)=O` is reported as 61 ± 12 µM (gag-pol integrase; integrase 3'-processing, inhibitor).
For `Nc1ncnc2c1ncn2C1CCC(OC(C(=O)O)P(=O)(O)O)C1` (racemic), the IC50 was 3.1 µM (gag-pol reverse transcriptase; enzyme activity, inhibitor).
`CC(C)C[C@@H]1NC(=O)[C@H](CCCCN)NC(=O)[C@H](CC(C)C)NC(=O)[C@@](C)(NC(=O)[C@H](Cc2ccccc2)NC(=O)[C@H](Cc2ccc(O)cc2)NC(=O)[C@H](C)NC(=O)[C@@H](N)[C@@H](C)O)CCCCC=CCCCC[C@@](C)(C(=O)NCC(=O)N[C@@H](CCCNC(=N)N)C(=O)N[C@@H](Cc2c[nH]c3ccccc23)C(N)=O)NC1=O` gave an IC50 of 48 ± 10 µM (gag-pol integrase; integrase 3'-processing, inhibitor).
For `NS(=O)(=O)c1ccc(NC(=O)c2ccccc2SSc2ccccc2C(=O)Nc2ccc(S(N)(=O)=O)cc2)cc1`, the IC50 was 1.14 µM (Gag-Pol polyprotein, integrase residues 1-213 (gag-pol, Human immunodeficiency virus type 1 group M subtype B, UniProt P04585); disintegration activity; C-terminally truncated integrase, 10 mM Mn2+).
The IC50 of `CC(C)C[C@@H]1NC(=O)[C@H](CCCCN)NC(=O)[C@H](CC(C)C)NC(=O)[C@@](C)(NC(=O)[C@H](Cc2ccccc2)NC(=O)[C@H](Cc2ccc(O)cc2)NC(=O)[C@H](C)NC(=O)[C@@H](N)[C@@H](C)O)CCC=CCC[C@@](C)(C(=O)NCC(=O)N[C@@H](CCCNC(=N)N)C(=O)N[C@@H](Cc2c[nH]c3ccccc23)C(N)=O)NC1=O` is reported as 90 µM (gag-pol integrase; integrase 3'-processing, inhibitor).
`Nc1ccn(C2CCC(OC(C(=O)O)P(=O)(O)O)C2)c(=O)n1` (racemic) gave an IC50 of 2.2 µM (gag-pol reverse transcriptase; enzyme activity, inhibitor).
